Results pooled from the literature.

COc1ccc(Nc2cnnc3ccc(-c4ccc(N5CCN(C)CC5)cc4)cc23)cc1Cl
phenotypic severity score (Schistosoma mansoni; adult worms; 10 µM, 5 h; direction not given): 0

COc1cnc2cccc(N3CCc4c(cc(Cn5ccnc5C)cc4-c4cn(C)nc4C(F)(F)F)C3=O)c2c1
EC50 (SUIT-2; cell growth, inhibitor; 120 h): 5210 nM

O=C(/C=C/C=C/C=C/C1CCCCC1)NC1=C[C@@](O)(/C=C/C=C/C=C/C(=O)NC2=C(O)CCC2=O)[C@@H]2O[C@@H]2C1=O
GI50 (Hs 294T; cell growth, CellTiter-Glo; 78 h): 16900 nM

CCN(CC)CCNC(=O)c1ccc(N)cc1
inhibition (Nedd8-cullin1 interaction; neddylation, AlphaScreen; 100 µM): 13.3%

CCn1cc(-c2cc(Cn3ccnc3)cc3c2CCN([C@H](c2cc(OC)ccn2)C2CC2)C3=O)c(C(F)(F)F)n1
EC50 (Toledo; cell growth; 120 h): 15.3 nM

CC1=C(Cn2cc([Si](C)(C)C)nn2)C(=O)c2ccccc2C1=O
killing (Schistosoma mansoni; adult worms; 10 µM, 48 h): 39.8%

NC(=O)c1cnc2[nH]ccc2c1N[C@@H]1[C@@H]2CC3C[C@H]1C[C@@](O)(C3)C2
change from baseline (flow cytometry, measured: CD8+ naive T cells; Japanese healthy subjects, peripheral blood; oral, 30 mg twice daily, day 7): -1.48%

COc1ccc(Nc2cnnc3cc(-c4cnc(N5CCN(C)CC5)nc4)ccc23)cc1Cl
phenotypic severity score (Schistosoma mansoni; adult worms; 10 µM, 24 h; direction not given): 1

Cc1c(C)c2c(c(C)c1OC(=O)c1cccnc1)CCC(C)(CCCC(C)CCCC(C)CCCC(C)C)O2 (mixture of isomers)
inhibition (Nedd8-cullin1 interaction; neddylation, AlphaScreen; 100 µM): -19.9%

C[C@H](Oc1ccc(Br)cc1-c1ccon1)C(=O)O
difference from placebo (first response peak; human, tibialis anterior muscle; 400 mg, 30-15 Hz, SAD): 5.34%

C[C@H]1c2cccc(O)c2C(=O)C2=C(O)[C@]3(O)C(=O)C(C(N)=O)=C(O)[C@@H](N(C)C)[C@@H]3[C@@H](O)[C@@H]21
mice with microfilariae (Brugia malayi; SCID mouse; dose not given, 6 weeks post-treatment, dosing x42d): 11%

COc1ccc(Nc2cnnc3cc(-c4cnc(N5CCCN(C)CC5)nc4)ccc23)cc1Cl
phenotypic severity score (Schistosoma mansoni; adult worms; 10 µM, 24 h; direction not given): 0

COC(=O)CCc1ccc(OCC(O)CNC(C)C)cc1 (stereo not shown)
inhibition (Nedd8-cullin1 interaction; neddylation, AlphaScreen; 100 µM): 2.3%

OC(CCN1CCCCC1)(c1ccccc1)C1CC2C=CC1C2 (stereo not shown)
change, Gamma power, EEG Pz-O1 (resting-state EEG; healthy elderly humans; oral, 4 mg, eyes closed, LS mean; reference: baseline): 3.1%

CC(C)NCC(O)c1ccc(O)c(O)c1 (stereo not shown)
sarcomere length (ventricular cardiomyocytes, C57BL/6 mouse; dose not given, 0.3 s): 1.72 µm

COc1cccc(OCCCN)c1-c1cc(Nc2cnc(C#N)cn2)n[nH]1
IC50 (HD-MB03; cell growth; 168 h, DMSO): 35.1 nM

CCOC(=O)Nc1ccc2c(c1)N(C(=O)CCN1CCOCC1)c1ccccc1S2
inhibition (Nedd8-cullin1 interaction; neddylation, AlphaScreen; 100 µM): 41.6%

CC1=C(Cn2cc(CO)nn2)C(=O)c2ccccc2C1=O
killing (Schistosoma mansoni; adult worms; 25 µM, 24 h): 44%

O=C(O)CNC(=O)Cc1ccccc1
sarcomere length (ventricular cardiomyocytes, C57BL/6 mouse; dose not given, 0.116 s): 1.72 µm

Cc1c(CN2CCN(C(=O)[C@H](C)O)CC2)sc2c(N3CCOCC3)nc(-c3cnc(N)nc3)nc12
IC50 (phospho-Akt; Akt phosphorylation, inhibitor; human patients with pleural carcinoma, plasma; PK-PD study): 6.6 ng/mL

CCn1cc(-c2cc(Cn3ccoc3=N)cc3c2CCN([C@@H](C)c2cc(OC)ccn2)C3=O)c(C(F)(F)F)n1
EC50 (NCI-H358; cell growth, inhibitor; 120 h): 159 nM

CC1=C(Cc2cn(CCOS(=O)(=O)c3ccc(C)cc3)nn2)C(=O)c2ccccc2C1=O
killing (Schistosoma mansoni; adult worms; 10 µM, 72 h): 43.1%

Cn1cc(-c2ccc(-c3cncc(Cl)c3N3CCC4(CCNC4=O)CC3)cc2)cn1
log2 fold change (COLO 205; gene expression, microarray, measured: CYR61 mRNA; concentration not given, 6 h; reference: untreated cells): 1.44

COc1cc(OC)c(C(=O)CCCN2CCCC2)c(OC)c1.Cl
inhibition (Nedd8-cullin1 interaction; neddylation, AlphaScreen; 100 µM): -15.8%

COc1ccc(Nc2cnnc3cc(-c4cnc(N5CCN(C)CC5)nc4)ccc23)cc1
phenotypic severity score (Schistosoma mansoni; adult worms; 10 µM, 5 h; direction not given): 0

CNC[C@H](O)c1ccc(O)c(O)c1.Cl
inhibition (Nedd8-cullin1 interaction; neddylation, AlphaScreen; 100 µM): 19.6%

N#Cc1ccn2c(-c3ccncc3)c(-c3ccc(F)cc3)nc2c1
log2 fold change (kinase binding, competitor, MIB/MS competition, measured: CTK1; Candida albicans cell lysate; 100 nM; reference: DMSO): 0.048

CC1=C(Cn2ccnn2)C(=O)c2ccccc2C1=O
killing (Schistosoma mansoni; adult worms; 10 µM, 24 h): 41.3%

COc1ccc(Nc2cnnc3ccc(-c4ccc(S(=O)(=O)N5CCN(C)CC5)cc4)cc23)cc1Cl
phenotypic severity score (Schistosoma mansoni; adult worms; 10 µM, 48 h; direction not given): 1

CC1=C(Cc2cn(CCN3CCC(=O)CC3)nn2)C(=O)c2ccccc2C1=O
killing (Schistosoma mansoni; adult worms; 10 µM, 48 h): 47.2%

Cc1ccc(Nc2cnnc3ccc(-c4ccc(N5CCN(C)CC5)cc4)cc23)cn1
phenotypic severity score (Schistosoma mansoni; adult worms; 10 µM, 5 h; direction not given): 1

c1ccc(CN(CC2=NCCN2)c2ccccc2)cc1
inhibition (Nedd8-cullin1 interaction; neddylation, AlphaScreen; 100 µM): -3.8%

Oc1ccccc1-c1n[nH]cc1-c1ccnc2ccccc12
log2 fold change (orf19.4144 Candida albicans; kinase binding, MIB/MS competition; Candida albicans lysate; 10 µM; reference: DMSO): 0.01

Cc1n[nH]c2ccc(-c3cc(OC[C@@H](N)Cc4ccccc4)cnc3-c3ccoc3)cc12
log2 fold change (kinase binding, competitor, MIB/MS competition, measured: FPK1; Candida albicans cell lysate; 100 nM; reference: DMSO): 0.0443

CC1=C(Cc2cn(CCN3CCC(F)(F)CC3)nn2)C(=O)c2ccccc2C1=O
killing (Schistosoma mansoni; adult worms; 10 µM, 24 h): 37%

CC(C)NCC(O)c1ccc(NS(C)(=O)=O)cc1 (stereo not shown)
inhibition (Nedd8-cullin1 interaction; neddylation, AlphaScreen; 100 µM): 32.2%

CN1CCN(c2ccc(-c3ccc4nncc(Nc5ncccn5)c4c3)cc2)CC1
phenotypic severity score (Schistosoma mansoni; adult worms; 10 µM, 5 h; direction not given): 0

CC1=C(Cn2cc(CNC(=O)OC(C)(C)C)nn2)C(=O)c2ccccc2C1=O
killing (Schistosoma mansoni; adult worms; 25 µM, 24 h): 54.2%

COc1ccc(Nc2cnnc3ccc(-c4cnc(N5CCN(C)CC5)nc4)cc23)cc1Cl
phenotypic severity score (Schistosoma mansoni; adult worms; 10 µM, 1 h; direction not given): 0

CC1=C(Cn2cc(COC3COC3)nn2)C(=O)c2ccccc2C1=O
killing (Schistosoma mansoni; adult worms; 25 µM, 24 h): 47%
